# Assay results collected from several papers.
# Each line is one published result; not all experiments were run side by side. ± gives the spread as reported.
Structure (SMILES),cell line,test,setting,scale,endpoint,result
COC(=O)C1=CO[C@@H](OC(C)=O)[C@@H]2C(Cn3cc(CN4C(=O)c5ccccc5C4=O)nn3)=CC[C@H]12,SK-N-SH,"neuroprotection, MTT","0.15 µM, 24 h, together with: 250 µM H2O2",,viability,54.2 ± 1.1%
C[C@@H](O)[C@H](NC(=O)[C@@H]1CSSC[C@H](NC(=O)[C@@H](Cc2ccccc2)NC(=O)CN2CCCN3CCN(CCCN(CP(=O)(O)O)CC3)CC2)C(=O)N[C@@H](Cc2ccc(O)cc2)C(=O)N[C@H](Cc2c[nH]c3ccccc23)C(=O)N[C@@H](CCCCN)C(=O)N[C@@H]([C@@H](C)O)C(=O)N1)C(=O)O [copper-64 labelled],AR-42J,,"4 nM, within 15 min",relative to: added activity/mg protein,cell surface binding,5.2 ± 0.03%
CC/C=C\C/C=C\C/C=C\C/C=C\C/C=C\C/C=C\CCC(=O)Nc1ccn(C2OC(CO)C(O)C2(F)F)c(=O)n1 (stereo not drawn),786-0,NCI-60 screen,,,CC50,> 100 µM
CCCCCCCCCCOCc1cn(CC2=CC[C@@H]3C(C(=O)OC)=CO[C@@H](OC(C)=O)[C@H]23)nn1,SK-N-SH,"neuroprotection, MTT","0.075 µM, 24 h, together with: 250 µM H2O2",,viability,52.1 ± 0.5%
Cc1cccc(O)c1C(=O)OCC1(O)C(Nc2ccc3c(c2)Cc2ccccc2-3)C(N)C(NC(=O)N(C)C)(C(C)O)C1(C)O (stereo not drawn),SNB-19,"cell growth or viability, SRB",,,GI50,1.4 µM
CC[C@H](C)[C@@H](OC(=O)[C@@H](NC(=O)[C@H](C)OCc1ccccc1)C(C)C)C(=O)N[C@@H](C(=O)O[C@@H](C)C(=O)N[C@H](C(=O)O[C@@H](C(=O)N[C@@H](C(=O)OC(C)(C)C)C(C)C)[C@@H](C)CC)C(C)C)C(C)C,NCI-460,cell growth or viability,,,GI50,> 10 µg/mL
CCCCCCCCC1(CCCCCCCC)c2cc(-c3cc4[n+]5c(c3)-c3cccc[n+]3[Ir-3]536([c]5c(c(C)cc(C)c5-c5cccc[n+]53)-c3cccc[n+]36)[n+]3ccccc3-4)ccc2-c2ccc(-c3cc4[n+]5c(c3)-c3cccc[n+]3[Ir-3]536([c]5c(c(C)cc(C)c5-c5cccc[n+]53)-c3cccc[n+]36)[n+]3ccccc3-4)cc21.F[P-](F)(F)(F)(F)F.F[P-](F)(F)(F)(F)F.F[P-](F)(F)(F)(F)F.F[P-](F)(F)(F)(F)F,SK-MEL-28,"cell viability, resazurin","16 h before light, red light 100 J/cm2",,EC50,49.5 ± 0.1 µM
CCCCCCCCCCOCc1cn(CC2=CC[C@@H]3C(C(=O)OC)=CO[C@@H](O)[C@H]23)nn1,SK-N-SH,"neuroprotection, MTT","0.15 µM, 24 h, together with: 250 µM H2O2",,viability,58.2 ± 0.3%
[Cl][Ag].[Se]=c1n(C2CCCCC2)ccn1C1CCCCC1,A2780,"cell growth or viability, MTT",72 h,,IC50,3.1 µM
CC(C)c1cnn2c(NCc3ccccc3)cc(N[C@@H](CO)[C@H](O)CO)nc12,HCT-116 resistant to compound,flow cytometry,,relative to: parental HCT-116,ABCB1 expression,1.7 fold
COC(=O)C1=CO[C@@H](OC(C)=O)[C@@H]2C(Cn3cc(CCO[Si](C)(C)C(C)(C)C)nn3)=CC[C@H]12,SK-N-SH,"neuroprotection, MTT","0.3 µM, 24 h, together with: 250 µM H2O2",,viability,62.8 ± 0.2%
CC(C)CC(O)(CC(C)C)c1cn(C(=O)N2CCCC2)nn1,mouse T-cells,"SILAC proteomics, refers to: LARP1","1 nM, 6 h, unit not given",relative to: DMSO,protein level,1.08 ± 0.15
C=CCCCCCCCCCOCc1cn(CC2=CC[C@@H]3C(C(=O)OC)=CO[C@@H](OC(C)=O)[C@H]23)nn1,SK-N-SH,"neuroprotection, MTT","0.3 µM, 24 h, together with: 250 µM H2O2",,viability,69.2 ± 0.4%
CN1C(=O)C2(Cc3ccc(CC45SSC(CO)(C(=O)N4C)N(C)C5=O)cc3)SSC1(CO)C(=O)N2C (racemic),MCF7,western blot,"200 nM, together with: deferoxamine 300 µM",,VEGF protein level decrease,~40%
c1ccc2c(Nc3c4c(nc5ccccc35)CCCC4)cccc2c1,SH-SY5Y,MTT,"50 µM, 1 h pretreatment, 10% FBS, together with: H2O2",,viability,37.3 ± 4.23%

# A few entries again:
Structure (SMILES),cell line,test,setting,scale,endpoint,result
[Cl][Ag].[Se]=c1n(C2CCCCC2)ccn1C1CCCCC1,A2780,"cell growth or viability, MTT",72 h,,IC50,3.1 µM
